Results pooled from the literature.
Each line is one published result; not all experiments were run side by side.
Technique: steady-state kinetics
B1: FMO3 V277A (Homo sapiens, UniProt P31513); chain GKKVAIIGAGVSGLASIRSCLEEGLEPTCFEKSNDIGGLWKFSDHAEEGRASIYKSVFSNSSKEMMCFPDFPFPDDFPNFMHNSKIQEYIIAFAKEKNLLKYIQFKTFVSSVNKHPDFATTGQWDVTTERDGKKESAVFDAVMVCSGHHVYPNLPKESFPGLNHFKGKCFHSRDYKEPGVFNGKRVLVVGLGNSGCDIATELSRTAEQVMISSRSGSWVMSRVWDNGYPWDMLLVTRFGTFLKNNLPTAISDWLYVKQMNARFKHENYGLMPLNGALRKEPVFNDELPASILCGIVSVKPNVKEFTETSAIFEDGTIFEGIDCVIFATGYSFAYPFLDESIIKSRNNEIILFKGVFPPLLEKSTIAVIGFVQSLGAAIPTVDLQSRWAAQVIKGTCTLPSMEDMMNDINEKMEKKRKWFGKSETIQTDYIVYMDELSSFIGAKPNIPWLFLTDPKLAMEVYFGPCSPYQFRLVGPGQWPGARNAILTQWDRSLKPMQTRVVGRLQKPCFFFHWLKLFAIPILLIAVFLVLT
B2: enzyme (Vitis vinifera, UniProt F6H697); chain MAVDPILSSPLGPAASEKDAKALQFIEEMTRNADSVQERVLAEILSRNGETEYLKRFKLEGSTVRETFKSKIPVIKYEDLQPEIQRIANGDRSAILSAHPISEFLTSSGTSAGERKLMPTIQEELDRRQMLYSLLMPVMNLYVPGLDKGKGLYFLFVKSETRTPGGLLARPVLTSYYKSEHFKTRPYDPYNVYTSPNEAILCADSFQSMYTQMLCGIYERKQVLRLGAVFASGLLRAIRFLQLNWHQLTHDIRTGTLSPKITDPSVRNCVAGVLKPDPELADLVAGECSKDNWEGIITRIWPNTKYLDVIVTGAMAQYIPTLDYYSGGLPLACTMYASSECYFGLNLNPMSKPSEVSYTIMPNMAYFEFLPHEHSSIPLSRDSPPRLVDLAHVEVGKEYELVITTYAGLYRYRVGDILRVTGFHNSAPQFHFVRRKNVLLSIDSDKTDEAELQKAVDNASKLLREVNTSVVEYTSFADTKTIPGHYVIYWELLVKDSANSPSDELLGQCCLAMEESLNSVYRQGRVADNSIGPLEIRVVKSGTFEELMDYAISRGASINQYKVPRCVNFTPIMELLDSRVVSSHFSPALPHWTPARRR
B3: enzyme (Candida albicans, UniProt A0A1D8PHX1); chain MISIIQNGISQLSSVSGLDEANLKILICTLLSFPFGIIFKRLPDHDYTLKNIYNVAVSCFYVFGICDLRFGISTLLISATGSYFITRYVRTKSMPWINFLFLMIHMAYSHFHLQFFKEYDPKSIDITGAQMILVMKLSAFGWNIHDGKQPRSTLNDFNKARAITKHPNVLPYIGYVFFYASLLTGPAFDYADYDKFIHGTLFDDVPQDKRPGKNKRRIPRSGVQAFKKFSLGFFWAFLLLQSDKFVTMEYMFSPEFVQYHGLFYRIIYMWILGFTFRLKYYTIWTIAEGACILCGIGYNGVDPETGEFKWNRVQNIDPWSFETGQNVHACLEAWNQNTNIWLKNYVYLRVAKPGKKPGFKSTIFTFTTSAFWHGTRPGYYLTFVVGALMQTVGKYYRRNFRPIFLEADGKTPKPTKIVYDFVCWVNTQLAFGFFVQPFVILGFTKSLECWATVYYWLLWVIAISFFAFSGPFAKSVSKFFKSLQPSYREQQRKSREDKYKLNNEEASIVEQAVGAKLGQDYDIPALGLPPFDVFTDFDQTEVDHDIQHLRKAWTSFRGRRGSITENDFDGLKDAYNNFTNEINDIFNTKKEEFKKEKLNKQN
B4: FMO3 E158K (Homo sapiens, UniProt P31513); chain GKKVAIIGAGVSGLASIRSCLEEGLEPTCFEKSNDIGGLWKFSDHAEEGRASIYKSVFSNSSKEMMCFPDFPFPDDFPNFMHNSKIQEYIIAFAKEKNLLKYIQFKTFVSSVNKHPDFATTGQWDVTTERDGKKESAVFDAVMVCSGHHVYPNLPKKSFPGLNHFKGKCFHSRDYKEPGVFNGKRVLVVGLGNSGCDIATELSRTAEQVMISSRSGSWVMSRVWDNGYPWDMLLVTRFGTFLKNNLPTAISDWLYVKQMNARFKHENYGLMPLNGVLRKEPVFNDELPASILCGIVSVKPNVKEFTETSAIFEDGTIFEGIDCVIFATGYSFAYPFLDESIIKSRNNEIILFKGVFPPLLEKSTIAVIGFVQSLGAAIPTVDLQSRWAAQVIKGTCTLPSMEDMMNDINEKMEKKRKWFGKSETIQTDYIVYMDELSSFIGAKPNIPWLFLTDPKLAMEVYFGPCSPYQFRLVGPGQWPGARNAILTQWDRSLKPMQTRVVGRLQKPCFFFHWLKLFAIPILLIAVFLVLT
B5: Comt (Mus musculus, UniProt O88587); chain MLLAAVSLGLLLLAFLLLLRHLGWGLVAIGWFEFVQQPVHNLLMGGTKEQRILRHVQQHAKPGDPQSVLEAIDTYCSEKEWAMNVGDAKGQIMDAVIREYRPSLVLELGAYCGYSAVRMARLLPPGARLLTMEINPDYAAITQQMLDFAGLQDKVSILIGASQDLIPQLKKKYDVDTLDMVFLDHWKDRYLPDTLLLEECGLLRKGTVLLADNVIVPGTPDFLAYVRGSSSFECTHYSSYLEYMKVVDGLEKAVYQGPGSSPVKS
B6: ADA (Homo sapiens, UniProt P00813); chain MAQTPAFDKPKVELHVHLDGSIKPETILYYGRRRGIALPANTAEGLLNVIGMDKPLTLPDFLAKFDYYMPAIAGCREAIKRIAYEFVEMKAKEGVVYVEVRYSPHLLANSKVEPIPWNQAEGDLTPDEVVALVGQGLQEGERDFGVKARSILCCMRHQPNWSPKVVELCKKYQQQTVVAIDLAGDETIPGSSLLPGHVQAYQEAVKSGIHRTVHAGEVGSAEVVKEAVDILKTERLGHGYHTLEDQALYNRLRQENMHFEICPWSSYLTGAWKPDTEHAVIRLKNDQANYSLNTDDPLIFKSTLDTDYQMTKRDMGFTEEEFKRLNINAAKSSFLPEDEKRELLDLLYKAYGMPPSASAGQNL
B7: enzyme S124A (Arabidopsis thaliana, UniProt O82390); chain MNARALLCSSNIHSLYTSNRPPEKTSSSRSLRNLKPSPKSLRVWIYPRNRSSVFRVLVRSSDKSESSNSYYVEGDKVSGNNDVVSDSPSSIVLPWWEEFPKRWVIVLLCFSAFLLCNMDRVNMAIAILPMSAEYGWNPATVGLIQSSFFWGYLLTQIAGGIWADTVGGKRVLGFGVIWWSIATILTPVAAKLGLPYLLVVRAFMGVGEGVAMPAMNNILSKWVPVQERSRSLALVYSGMYLGSVTGLAFSPFLIHQFGWPSVFYSFGSLGTVWLTLWLTKAESSPLEDPTLLPEERKLIADNCASKEPVKSIPWRLILSKPPVWALISCHFCHNWGTFILLTWMPTYYHQVLKFNLMESGLLSVFPWMTMAISANAGGWIADTLVSRGFSVTNVRKIMQTIGFLGPAFFLTQLKHIDSPTMAVLCMACSQGTDAFSQSGLYSNHQDIAPRYSGVLLGLSNTAGVLAGVLGTAATGHILQHGSWDDVFTISVGLYLVGTVIWNLFSTGEKIID
B8: FPPS (Aedes aegypti, UniProt Q17F78); chain MLSTLIRAGSLQTMGRQFARSVETPVQMQHARFISKSSEVNSDYMTMRENQTQKVSRDYNSKLQVRLKKVSRTLSTLNNSIPEAASQTIVTKSDAREFMAVFPDLVRDLTEYCKKYDNTLAPKWFVKALQYNVPQGKKNRGLAAVLAYRMLSKSEDLTPENIRRAHYLGWVIEMFQAVFLICDDAMDGSQTRRGQPCWYKLEDVKLSGINDALMIDAAIFYVLKKQFGDEPYYSKLVETFNEIKFITTIGQSLDLRSARMDVTKYTMDLYKSIVCHKTAYYTFYLPVALAMHMTGFTDPEVFRQTKTILLEIGLFYQTQDDFLDCFGDPAVTGKIGTDIEEGKCTWLSVVAMQRASDEQKELMKQCYGSSDPEKVARVKKLYEELGLPTTYAIYEEESYNMIKTHIQQISRGLPHELFFKIMEKIYRRDC
B9: enzyme (Brachypodium distachyon, UniProt I1IPY7); chain MEQGKAALGWAARDASGHLSPYNFSRRVQKDDDVTIKVLFCGICHTDLHIIKNEWGNALYPIVPGHEVVGVVTDVGPGVKNFKAGETVGVGYFLDSCRTCDSCSKGHENYCPTLVLTSNGVDYDGATTQGGFSDVVVVNQDYVVRVPDTLPPDGAAPLLCAGVTVYSPMMQYGLNAPGKHLGVVGLGGLGHMAVKFGKAFGMKVTVISSSLRKREEALDRLGADDFLVSSDAEQMKAAAGAMDGIIDTVSAGHPIVPLLELLRPMGQMVVCGAPSEPLQLPAYAVITGGKRIAGNGVGSVRDCQAMLDFAGEHGITADVEVVKMDYVNTAVERLERNDVRYRFVIDVAGSLQQGGAA
B10: HCT R356E (Coleus scutellarioides, UniProt E8ZAP2); chain MKIHVRDSTLVRPSAATPAVSLWNSNVDLVVPNFHTPSVYFYRPSGADNFFDTAVMKAALGRALVSFYPMAGRLKRDEDGRVEIDCNAEGVLFVEAESDGTVDDYGDFAPSLELRRLIPAVDYSQGISAYPLLVLQVTFFKCGGVSLGVGMQHHAADGFSGLHFINTWSDMARGLDITLPPFIDRTLLSARDPPQPQFKHVEYQPPPAMKTYEPAETVVSIFKLTKDQLTTLKAKSKEDGNTTTYSSYEMLSGHVWRCTCLARGLPEEQETKLYIATDGRSRLQPQLPPGYFGNVIFTATPLAVAGDLGSKPVWYAASKIHDALARMDNDYLRSALDFLELQPDLKALVRGAHTFECPNLGITSWVRLPIHDADFGWGRPIFMGPGGIAYEGLSFVLPSPTNDGSLSVAISLQAEHMKLFEKLLYQI
B11: enzyme S146A (Schizosaccharomyces pombe, UniProt Q9Y7P0); chain MFTGLVEAIGVVKDVQGTIDNGFAMKIEAPQILDDCHTGDSIAVNGTCLTVTDFDRYHFTVGIAPESLRLTNLGQCKAGDPVNLERAVLSSTRMGGHFVQGHVDTVAEIVEKKQDGEAIDFTFRPRDPFVLKYIVYKGYIALDGTALTITHVDDSTFSIMMISYTQSKVIMAKKNVGDLVNVEVDQIGKYTEKLVEAHIADWIKKTQA
B12: FabZ (Campylobacter jejuni, UniProt A1VXZ7); chain MIDVMQIQEILPHRYPFLLVDKITELKVKEVVLGYKNISISDHVFMGHFPGHPIYPGVLILEGMAQTGGVLAFESMEDKVDPKSKVVYFTGIDGAKFRNPVRPGDRLDYEMSVVKNRGNMWIFKGQAFVDGNLVAEAELKAMIVDK
UniProt H6U1I8, sequence (whole entry, looked up): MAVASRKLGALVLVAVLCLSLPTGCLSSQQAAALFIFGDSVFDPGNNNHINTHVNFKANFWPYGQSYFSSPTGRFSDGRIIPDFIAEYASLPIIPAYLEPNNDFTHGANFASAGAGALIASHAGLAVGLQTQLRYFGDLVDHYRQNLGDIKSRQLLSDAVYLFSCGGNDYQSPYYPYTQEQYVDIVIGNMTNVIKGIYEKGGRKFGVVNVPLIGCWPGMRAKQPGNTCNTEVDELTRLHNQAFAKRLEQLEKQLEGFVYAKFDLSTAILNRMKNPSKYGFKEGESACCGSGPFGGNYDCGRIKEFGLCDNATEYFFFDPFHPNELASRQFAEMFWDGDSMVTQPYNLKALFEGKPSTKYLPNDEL
UniProt Q3SY77, sequence (whole entry, looked up): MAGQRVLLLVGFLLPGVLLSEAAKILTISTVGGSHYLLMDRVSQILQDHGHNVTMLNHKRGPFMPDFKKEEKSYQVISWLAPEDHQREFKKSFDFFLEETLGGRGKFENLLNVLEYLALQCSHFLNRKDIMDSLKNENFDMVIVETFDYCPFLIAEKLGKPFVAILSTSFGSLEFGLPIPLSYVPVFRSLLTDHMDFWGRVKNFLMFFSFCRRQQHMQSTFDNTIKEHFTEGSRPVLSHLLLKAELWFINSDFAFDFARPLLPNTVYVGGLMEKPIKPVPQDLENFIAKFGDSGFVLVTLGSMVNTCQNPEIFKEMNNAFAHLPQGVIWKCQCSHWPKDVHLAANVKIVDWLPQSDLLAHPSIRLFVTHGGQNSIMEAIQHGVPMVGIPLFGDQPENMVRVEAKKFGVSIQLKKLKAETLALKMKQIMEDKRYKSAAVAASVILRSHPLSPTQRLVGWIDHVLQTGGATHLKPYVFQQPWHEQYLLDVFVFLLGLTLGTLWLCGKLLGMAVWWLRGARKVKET
UniProt Q9HAW9, sequence (whole entry, looked up): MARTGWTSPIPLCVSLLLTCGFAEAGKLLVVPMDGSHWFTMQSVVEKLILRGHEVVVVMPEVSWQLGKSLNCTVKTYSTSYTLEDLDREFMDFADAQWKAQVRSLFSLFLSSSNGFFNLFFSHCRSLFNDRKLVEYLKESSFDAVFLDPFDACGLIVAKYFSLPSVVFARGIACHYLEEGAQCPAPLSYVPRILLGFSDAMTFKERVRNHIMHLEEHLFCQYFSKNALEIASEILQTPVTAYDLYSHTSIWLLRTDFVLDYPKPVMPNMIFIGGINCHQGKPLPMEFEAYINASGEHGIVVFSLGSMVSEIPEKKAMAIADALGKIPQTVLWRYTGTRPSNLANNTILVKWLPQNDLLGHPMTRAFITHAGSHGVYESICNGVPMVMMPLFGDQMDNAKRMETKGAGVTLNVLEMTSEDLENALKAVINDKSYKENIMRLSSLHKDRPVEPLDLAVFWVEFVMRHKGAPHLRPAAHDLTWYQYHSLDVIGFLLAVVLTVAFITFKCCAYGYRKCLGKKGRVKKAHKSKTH
UniProt O60656, sequence (whole entry, looked up): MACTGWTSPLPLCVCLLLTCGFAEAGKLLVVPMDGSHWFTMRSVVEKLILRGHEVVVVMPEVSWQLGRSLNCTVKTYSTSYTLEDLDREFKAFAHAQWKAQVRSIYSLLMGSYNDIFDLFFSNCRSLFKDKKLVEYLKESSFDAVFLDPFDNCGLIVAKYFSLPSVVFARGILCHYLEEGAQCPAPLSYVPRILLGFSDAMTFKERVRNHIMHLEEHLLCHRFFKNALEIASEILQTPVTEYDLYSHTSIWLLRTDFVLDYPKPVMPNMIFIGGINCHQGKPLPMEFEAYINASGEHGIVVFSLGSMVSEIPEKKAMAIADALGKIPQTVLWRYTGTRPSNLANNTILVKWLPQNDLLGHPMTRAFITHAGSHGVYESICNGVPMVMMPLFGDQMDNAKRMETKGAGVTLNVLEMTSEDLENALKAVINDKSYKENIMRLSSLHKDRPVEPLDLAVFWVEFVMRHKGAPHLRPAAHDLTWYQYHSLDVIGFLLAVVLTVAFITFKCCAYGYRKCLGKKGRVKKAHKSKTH

enzyme (Tanacetum cinerariifolium, UniProt H6U1I8) — Vmax (C=C/C=C\CC1=C(C)[C@@H](O)CC1=O; pH 7.5, 25 °C): 0.154 µmol/min/mg
B1 (FMO3 V277A) — Vmax (CN1CCC[C@H]1c1cccnc1; HEK293 microsomes; 37 °C, not purified, added: NADPH regenerating system): 6.7e-06 µmol/min/mg
B2 (enzyme) — Vmax (O=C(O)Cc1cccc2ccccc12; pH 8.6, 25 °C): 0.0752 µmol/min/mg
B3 (enzyme) — Vmax (CCCCCCCC/C=C\CCCCCCCC(=O)SCCNC(=O)CCNC(=O)[C@H](O)C(C)(C)COP(=O)(O)OP(=O)(O)OC[C@H]1O[C@@H](n2cnc3c(N)ncnc32)[C@H](O)[C@@H]1OP(=O)(O)O; pH 7.4, 37 °C, apparent, not purified): 0.0394 µmol/min/mg
B4 (FMO3 E158K) — Vmax (CN1CCC[C@H]1c1cccnc1; HEK293 microsomes; 37 °C, not purified, added: NADPH regenerating system): 9.8e-06 µmol/min/mg
B5 (Comt) — Vmax (O=c1oc2c(O)c(O)ccc2cc1-c1nc2ccccc2s1; MLS9; pH 7.4, 37 °C): 0.00033 µmol/min/mg
UGT1A9 (Homo sapiens, UniProt O60656) — Vmax (COc1cc(-c2cc(=O)c3c(O)cc(O)cc3o2)ccc1O; pH 7.4, 37 °C): 0.00276 µmol/min/mg
B6 (ADA) — Vmax (Nc1ncnc2c1ncn2[C@@H]1O[C@H](CO)C[C@H]1O; HEK293, cell homogenate; pH 5.8, 37 °C, not purified): 0.0458 µmol/min/mg
UGT3A2 (Homo sapiens, UniProt Q3SY77) — Vmax (O=c1ccn([C@@H]2O[C@H](CO[P@@](=O)(O)O[P@@](=O)(O)O[C@H]3O[C@H](CO)[C@@H](O)[C@H](O)[C@H]3O)[C@@H](O)[C@H]2O)c(=O)[nH]1; pH 7.4, 37 °C, not purified, added: 1-OH-pyrene 16 µM, MgCl2 10 mM, alamethicin): 0.000997 µmol/min/mg
B7 (enzyme S124A) — Vmax (O=P(O)(O)O; pH 6.5, 25 °C, apparent, not purified): 0.000848 µmol/min/mg
B8 (FPPS) — Vmax (CC(C)=CCOP(=O)(O)OP(=O)(O)O; pH 7.5, 37 °C, added: IPP 100 µM, Mg2+ 5 mM): 666 µmol/min/mg
UGT1A8 (Homo sapiens, UniProt Q9HAW9) — Vmax (COc1cc2c(cc1CC=C(C)C)C(=O)C[C@@H](c1ccc(O)cc1)O2; pH 7.4, 37 °C): 0.000685 µmol/min/mg
B9 (enzyme) — Vmax (NC(=O)c1ccc[n+]([C@@H]2O[C@H](COP(=O)(O)OP(=O)(O)OC[C@H]3O[C@@H](n4cnc5c(N)ncnc54)[C@H](OP(=O)(O)O)[C@@H]3O)[C@@H](O)[C@H]2O)c1; pH 8.8, 23 °C, cofactor varied): 5.6 µmol/min/mg
B10 (HCT R356E) — Vmax (NCc1ccc(O)c(O)c1; pH 8, pseudo-first-order, added: p-coumaroyl CoA): 8.55 µmol/min/mg
B11 (enzyme S146A) — Vmax (Cc1nc2c(=O)[nH]c(=O)nc-2n(C[C@H](O)[C@H](O)[C@H](O)CO)c1C; pH 7.2, 37 °C, apparent): 0.183 µmol/min/mg
B12 (FabZ) — Vmax (C/C=C/C(=O)SCCNC(=O)CCNC(=O)[C@H](O)C(C)(C)COP(=O)(O)OP(=O)(O)OC[C@H]1O[C@@H](n2cnc3c(N)ncnc32)[C@H](O)[C@@H]1OP(=O)(O)O; pH 7.5, room temperature, NaCl 500 mM, reverse hydration reaction): 0.182 µmol/min/mg

Repeated from above:
UGT1A8 (Homo sapiens, UniProt Q9HAW9) — Vmax (COc1cc2c(cc1CC=C(C)C)C(=O)C[C@@H](c1ccc(O)cc1)O2; pH 7.4, 37 °C): 0.000685 µmol/min/mg
B8 (FPPS) — Vmax (CC(C)=CCOP(=O)(O)OP(=O)(O)O; pH 7.5, 37 °C, added: IPP 100 µM, Mg2+ 5 mM): 666 µmol/min/mg
B10 (HCT R356E) — Vmax (NCc1ccc(O)c(O)c1; pH 8, pseudo-first-order, added: p-coumaroyl CoA): 8.55 µmol/min/mg
